{"data": "Published values gathered from unrelated publications", "note": "Each line is one published result; not all experiments were run side by side. “And” joins repeats or separate records; there may be more than shown. ± marks the error that the study gave."}
{"SMILES": "Cc1c(CN(C)C(=O)/C=C/c2cnc3c(c2)CC(NC(=O)OC(C)(C)C)C(=O)N3)oc2ccccc12 (stereo not shown)", "organism": "Klebsiella pneumoniae", "test": "broth microdilution", "system": "AR-0034", "endpoint": "MIC", "result": "> 32 µg/mL"}
{"SMILES": "CCOC(=O)CSC1=N/C(=C\\c2ccc(C(C)C)cc2)C(=O)N1c1ccccc1", "organism": "Fusarium solani", "setting": "concentration not given", "endpoint": "inhibition zone diameter", "result": "14 ± 0.2 mm"}
{"SMILES": "CCOc1nc(N)ncc1-c1cn([C@@H]2O[C@](F)(COC(=O)C(C)C)[C@@H](OC(=O)C(C)C)[C@H]2OC(=O)C(C)C)cn1", "organism": "Dengue virus", "test": "viral replication", "system": "Huh-7, DENV-2", "setting": "48 h", "endpoint": "EC50", "result": "14.1 µM"}
{"SMILES": "COc1ccc(N/N=C/c2ccc(-c3cccc(/C=N/Nc4ccc(OC)cc4)c3)cc2)cc1", "organism": "Aspergillus flavus", "system": "ATCC MYA-3631", "how to read": "reference: CC50 over MIC", "endpoint": "selectivity ratio", "result": "< 0.6"}
{"SMILES": "COc1ncc(-c2cn([C@@H]3O[C@](F)(COC(=O)C(C)C)[C@@H](OC(=O)C(C)C)[C@H]3OC(=O)C(C)C)cn2)cn1", "organism": "Dengue virus", "test": "viral replication", "system": "Huh-7, DENV-4", "setting": "48 h", "endpoint": "EC50", "result": "> 100 µM"}
{"SMILES": "Nc1nc(-c2ccccc2)nc2[nH]nc(Nc3ccc(C(F)(F)F)cc3)c12", "organism": "coxsackievirus B3", "system": "31-1-93, NMRI mice, CVB3 chronic myocarditis", "setting": "oral, 100 mg/kg twice daily, day 28, dosed days 1 to 7, score scale 0 to 7", "how to read": "direction not given", "endpoint": "clinical score", "result": 0.11}
{"SMILES": "CN[C@H](CC(C)C)C(=O)N[C@H]1C(=O)N[C@@H](CC(N)=O)C(=O)N[C@H]2C(=O)N[C@H]3C(=O)N[C@H](C(=O)N[C@H](C(=O)O)c4cc(O)cc(O)c4-c4cc3ccc4O)[C@H](O)c3ccc(c(Cl)c3)Oc3cc2cc(c3O[C@@H]2O[C@H](CO)[C@@H](O)[C@H](O)[C@H]2O[C@H]2C[C@](C)(N)[C@H](O)[C@H](C)O2)Oc2ccc(cc2Cl)[C@H]1O", "organism": "Staphylococcus aureus", "system": "MRSA ATCC 43300", "setting": "2 × MIC", "endpoint": "post-antibiotic effect", "result": "0.446 h"}
{"SMILES": "C[C@@H](O)[C@H]1C(=O)N2C(C(=O)O)=C(SCCN=CN)C[C@H]12", "organism": "Escherichia coli", "system": "ATCC 25922, female ICR mice, kidney infection, kidney", "setting": "dose not given", "endpoint": "bacterial load", "result": "5.83 log CFU/g and 4.6 log CFU/g and 5.64 log CFU/g and 5.15 log CFU/g and 5.84 log CFU/g and 5.56 log CFU/g"}
{"SMILES": "CC(C)c1ccc(/C=C2\\N=C(SCC(=O)c3ccccc3)N(c3ccccc3)C2=O)cc1", "organism": "Fusarium solani", "setting": "concentration not given", "endpoint": "inhibition zone diameter", "result": "15 ± 0.12 mm"}
{"SMILES": "CC(C)[C@@H]1NC(=O)[C@@H](CCCCN)NC(=O)[C@H]([C@@H](C)O)NC(=O)[C@@H](CCCN)NC(=O)[C@H](Cc2ccccc2)NC(=O)[C@@H](Cc2ccccc2)NC1=O", "organism": "Balamuthia mandrillaris", "test": "CellTiter-Glo", "setting": "trophozoites", "endpoint": "IC90", "result": "3.58 µg/mL"}
{"SMILES": "CC(C)C(=O)OC[C@@]1(F)O[C@@H](n2cnc(-c3c[nH]c(=O)nc3N)c2)[C@H](OC(=O)C(C)C)[C@@H]1OC(=O)C(C)C", "organism": "Dengue virus", "test": "viral replication", "system": "Huh-7, DENV-4", "setting": "48 h", "endpoint": "EC50", "result": "> 100 µM"}
{"SMILES": "CO[C@H]1/C=C/O[C@@]2(C)Oc3c(C)c(O)c4c(c3C2=O)C2=NC3(CCN(CC(C)C)CC3)NC2=C(NC(=O)/C(C)=C\\C=C\\[C@H](C)[C@H](O)[C@@H](C)[C@@H](O)[C@@H](C)[C@H](OC(C)=O)[C@@H]1C)C4=O", "organism": "Mycobacteroides abscessus", "endpoint": "MIC90", "result": "9.1 mM"}
{"SMILES": "Cc1c(Cl)cccc1Nc1ccccc1C(=O)O", "organism": "Phelipanche ramosa", "test": "seed germination, antagonist", "setting": "together with: 2-PEITC 100 nM", "endpoint": "IC50", "result": "18 µM"}
{"SMILES": "COC(=O)[C@H](Cc1c[nH]c2ccccc12)NCc1cc2ccccc2nc1OC", "organism": "Pseudomonas aeruginosa", "setting": "2 µg/mL, together with: pentamidine 100 µM", "how to read": "reference: control", "endpoint": "growth", "result": "56.4%"}
{"SMILES": "CC(C)(C)CC(C)(C)c1ccc(OCCO)cc1", "organism": "Phelipanche ramosa", "test": "seed germination, inhibitor", "setting": "together with: (±)-GR24 10 nM", "endpoint": "IC50", "result": "35 µM"}
{"SMILES": "COc1nc(N)ncc1-c1cn([C@@H]2O[C@](F)(CO)[C@@H](O)[C@H]2O)cn1", "organism": "Dengue virus", "test": "viral replication", "system": "Huh-7, DENV-2", "setting": "48 h", "endpoint": "EC50", "result": "> 50 µM"}
{"SMILES": "N=C(N)c1ccc(OCc2ccc(Br)cc2COc2ccc(C(=N)N)cc2)cc1", "organism": "Klebsiella pneumoniae", "system": "ATCC 13883", "setting": "concentration not given, together with: rifampicin", "endpoint": "MIC in combination", "result": "6.25 µg/mL"}
{"SMILES": "CC(C)C[C@H](NC(=O)[C@H](Cc1cccc2ccccc12)NC(=O)OCc1ccccc1)C(=O)N[C@H](CCl)C[C@@H]1CCCNC1=O", "organism": "Norwalk virus", "test": "replicon RNA level, RT-qPCR", "system": "HG23 cells, GI.1 replicon", "setting": "96 h", "endpoint": "EC50", "result": "> 10 µM"}
{"SMILES": "COc1ncncc1-c1cn([C@@H]2O[C@](F)(COC(=O)C(C)C)[C@@H](OC(=O)C(C)C)[C@H]2OC(=O)C(C)C)cn1", "organism": "Dengue virus", "test": "viral replication", "system": "Huh-7, DENV-2", "setting": "48 h", "endpoint": "EC50", "result": "25.4 µM"}
{"SMILES": "CN[C@H](CC(C)C)C(=O)N[C@H]1C(=O)N[C@@H](CC(N)=O)C(=O)N[C@H]2C(=O)N[C@H]3C(=O)N[C@H](C(=O)N[C@H](C(=O)O)c4cc(O)cc(O)c4-c4cc3ccc4O)[C@H](O)c3ccc(c(Cl)c3)Oc3cc2cc(c3O[C@@H]2O[C@H](CO)[C@@H](O)[C@H](O)[C@H]2O[C@H]2C[C@](C)(N)[C@H](O)[C@H](C)O2)Oc2ccc(cc2Cl)[C@H]1O", "organism": "Streptococcus pyogenes", "system": "ATCC 13813", "setting": "1 strain", "endpoint": "MBC range", "result": "> 32 µg/mL"}
{"SMILES": "CC(C)n1ncc2c(C(=O)NCC3(C)CNC3)cc(C3CC3)nc21", "organism": "Enterovirus D68", "test": "cytopathic effect", "system": "RD, US/MO/14-18949", "setting": "5 nM", "endpoint": "cell protection", "result": "0.82% and 0.41% and 0.546%"}
{"SMILES": "C[C@@H](CO)CCC[C@@H](C)[C@H]1CC[C@H]2[C@@H]3CC=C4C[C@@H](O)CC[C@]4(C)[C@H]3CC[C@]12C", "organism": "human rotavirus", "test": "viral replication", "system": "Caco-2, Wa", "endpoint": "EC90", "result": "2.5 µM"}
{"SMILES": "CCc1nn(C)c2nc(-c3ccc(C(=O)O)cc3)nc(NCc3ccc(F)cc3)c12", "organism": "Cryptosporidium parvum", "system": "HCT-8", "setting": "3 x EC90, 24 h", "how to read": "reference: DMSO control", "endpoint": "parasite number", "result": "33.6% and 30.9% and 28.3% and 30.8%"}
{"SMILES": "COCC(=O)N1CCC[C@@H](C(=O)NCc2nc(-c3ccccc3)cs2)C1", "organism": "Plasmodium falciparum", "test": "SYBR Green", "system": "3D7", "setting": "72 h", "endpoint": "EC50", "result": "10 ± 0.85 µM"}
{"SMILES": "COc1ncncc1-c1cn([C@@H]2O[C@](F)(CO)[C@@H](O)[C@H]2O)cn1", "organism": "Dengue virus", "test": "viral replication", "system": "Huh-7, DENV-2", "setting": "48 h", "endpoint": "EC50", "result": "> 100 µM"}
{"SMILES": "CC(=O)NC[C@H]1CN(c2ccc(N3CCOCC3)c(F)c2)C(=O)O1", "organism": "Enterococcus raffinosus", "system": "ATCC 49464", "endpoint": "MIC", "result": "0.00296 mM"}
{"SMILES": "CC(C)C(=O)OC[C@@]1(F)O[C@@H](n2cnc(-c3cnc(=O)[nH]c3)c2)[C@H](OC(=O)C(C)C)[C@@H]1OC(=O)C(C)C", "organism": "Dengue virus", "test": "viral replication", "system": "Huh-7, DENV-4", "setting": "48 h", "endpoint": "EC50", "result": "> 100 µM"}
{"SMILES": "CNC(C)C1CCC(N)C(OC2C(N)CC(N)C(OC3OCC(C)(O)C(NC)C3O)C2O)O1 (stereo not shown)", "organism": "Pseudomonas aeruginosa", "system": "clinical isolate RKI-No_497/15", "endpoint": "MIC", "result": "4 µg/mL"}
{"SMILES": "COC(=O)[C@H](Cc1ccc(O)cc1)NCc1cc2ccccc2nc1SC", "organism": "Pseudomonas aeruginosa", "setting": "16 µg/mL, without pentamidine", "how to read": "reference: control", "endpoint": "growth", "result": "94.3%"}
{"SMILES": "COc1nc(N)ncc1-c1cn([C@@H]2O[C@](F)(COC(=O)C(C)C)[C@@H](OC(=O)C(C)C)[C@H]2OC(=O)C(C)C)cn1", "organism": "Dengue virus", "test": "viral replication", "system": "Huh-7, DENV-4", "setting": "48 h", "endpoint": "EC50", "result": "12 µM"}
{"SMILES": "CC1(C)S[C@@H]2[C@H](NC(=O)[C@H](N)c3ccccc3)C(=O)N2[C@H]1C(=O)O", "organism": "Salmonella enterica serovar München", "test": "broth microdilution", "system": "clinical isolate RKI-No 419/14", "endpoint": "MIC", "result": "> 16 µg/mL"}
{"note": "Repeated from above:"}
{"SMILES": "C[C@@H](CO)CCC[C@@H](C)[C@H]1CC[C@H]2[C@@H]3CC=C4C[C@@H](O)CC[C@]4(C)[C@H]3CC[C@]12C", "organism": "human rotavirus", "test": "viral replication", "system": "Caco-2, Wa", "endpoint": "EC90", "result": "2.5 µM"}
{"SMILES": "Cc1c(Cl)cccc1Nc1ccccc1C(=O)O", "organism": "Phelipanche ramosa", "test": "seed germination, antagonist", "setting": "together with: 2-PEITC 100 nM", "endpoint": "IC50", "result": "18 µM"}
{"SMILES": "COc1ncncc1-c1cn([C@@H]2O[C@](F)(COC(=O)C(C)C)[C@@H](OC(=O)C(C)C)[C@H]2OC(=O)C(C)C)cn1", "organism": "Dengue virus", "test": "viral replication", "system": "Huh-7, DENV-2", "setting": "48 h", "endpoint": "EC50", "result": "25.4 µM"}
{"SMILES": "CC(C)(C)CC(C)(C)c1ccc(OCCO)cc1", "organism": "Phelipanche ramosa", "test": "seed germination, inhibitor", "setting": "together with: (±)-GR24 10 nM", "endpoint": "IC50", "result": "35 µM"}
